Assay results of several laboratories.
A part holds a random share of what one study measured.

Sample 1
Target: Sal-like protein 4, full length isoform A (SALL4, Homo sapiens, UniProt Q9UJQ4, residues 1-1053)
Chain of UniProt Q9UJQ4 (whole entry, looked up): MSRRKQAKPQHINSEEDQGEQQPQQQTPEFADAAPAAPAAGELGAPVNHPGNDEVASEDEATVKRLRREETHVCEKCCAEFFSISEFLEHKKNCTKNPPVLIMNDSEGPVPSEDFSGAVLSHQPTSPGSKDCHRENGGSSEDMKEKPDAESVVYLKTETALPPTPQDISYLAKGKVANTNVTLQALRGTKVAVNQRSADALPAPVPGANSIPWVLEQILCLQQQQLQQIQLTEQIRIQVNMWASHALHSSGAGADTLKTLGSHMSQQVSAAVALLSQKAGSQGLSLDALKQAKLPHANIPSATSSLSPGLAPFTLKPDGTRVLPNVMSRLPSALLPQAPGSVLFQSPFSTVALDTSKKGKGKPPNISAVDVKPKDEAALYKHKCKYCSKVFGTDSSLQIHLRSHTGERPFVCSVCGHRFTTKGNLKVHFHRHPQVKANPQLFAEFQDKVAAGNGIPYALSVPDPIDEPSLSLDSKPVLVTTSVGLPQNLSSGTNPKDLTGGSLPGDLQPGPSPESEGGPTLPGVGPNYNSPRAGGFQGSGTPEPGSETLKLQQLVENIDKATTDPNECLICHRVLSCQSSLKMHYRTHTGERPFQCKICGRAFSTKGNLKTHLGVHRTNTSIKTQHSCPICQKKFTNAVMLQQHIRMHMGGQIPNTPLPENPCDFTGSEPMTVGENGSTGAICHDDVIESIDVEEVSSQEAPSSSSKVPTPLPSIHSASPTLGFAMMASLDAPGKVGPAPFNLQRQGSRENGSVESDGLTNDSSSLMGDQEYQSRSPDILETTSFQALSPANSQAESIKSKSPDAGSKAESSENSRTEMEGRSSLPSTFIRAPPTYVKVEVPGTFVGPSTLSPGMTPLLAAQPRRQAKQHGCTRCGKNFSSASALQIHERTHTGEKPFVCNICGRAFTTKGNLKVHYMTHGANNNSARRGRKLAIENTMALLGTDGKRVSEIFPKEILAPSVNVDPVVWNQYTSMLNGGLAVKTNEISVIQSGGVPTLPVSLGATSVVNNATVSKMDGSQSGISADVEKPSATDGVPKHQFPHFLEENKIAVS
Method: universal PBM
Molecule type: double-stranded DNA, one strand shown
Matrix: in vitro
Tested at: 600 nM
Notes: 8-mer, flanks averaged, mean of replicates
Direction: higher = stronger binding
The E-score of `GTTCTGAA` is reported as 0.119.
`CTTGTCCA` gave an E-score of 0.0225.
`AAGAGGGC` has an E-score of -0.102.
For `AGCATACG`, the E-score was 0.029.
The E-score of `ACCGGGCA` is reported as -0.386.
`GAAGAGCA` has an E-score of -0.0305.

Sample 2
Target: RNA binding protein fox-1 homolog 2, RRM domain, GST-SBP tag (RBFOX2, Homo sapiens, UniProt O43251-10, residues 100-194)
Method: RNA Bind-n-Seq
Molecule type: RNA
Matrix: in vitro
Tested at: 365 nM
Notes: natural RNA segment, single round, ends assumed
Reference: no-protein control
Direction: higher = stronger binding
Construct (chain): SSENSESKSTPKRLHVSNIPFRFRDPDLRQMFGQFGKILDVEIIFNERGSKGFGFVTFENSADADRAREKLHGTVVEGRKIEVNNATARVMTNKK
`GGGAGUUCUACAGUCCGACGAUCGAGGGUGAGGAUCAGUGUAUUAGAGCAUCUUCGGAGUGUUACCUACCAGUGUUGUCCAGAAGAAGCAGAGACUCAGCGCGGCUGUUGUGAGGUCUGCCUCACACCACCCAUGGAAUUCUCGGGUGCCAA`: “RBNS enrichment (R)” 0.975.
`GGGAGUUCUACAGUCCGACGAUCGUGUCAAGCACAUUAUAGUGUUUGCCCUCACAGGAAAAAAAAAAAAGUCCCCUGUUCUGAAAACAGGCCAGUGGUGGGCCGCCACUCUGCUGCUAUCAGCUCUGUUAGGUUGGAAUUCUCGGGUGCCAA` — result for “RBNS enrichment (R)”: 0.214.
For `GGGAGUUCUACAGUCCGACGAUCUGCCAAAGGCAAGACACCUAUAGUUGAGCUGUAUUUUGGGGGAUUGGGUGAGGAAGGACUUCUGAUCUUAUCUCAACAAAAAACUGGCCAGUAUUUUUGUUAAUGUAAAGUGGAAUUCUCGGGUGCCAA`, “RBNS enrichment (R)” read 0.358.
`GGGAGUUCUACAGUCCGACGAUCGCCUAGCUGGCCUUAUUUGUGAAGCAUAAUUGCUUUUAGCAUAUGGAAGUAUUUUUUCACAUUUUCUUUGUAUAAAAUUUGUAUUAAACUUAAAUAUCUUUUUGAUGGUGUGGAAUUCUCGGGUGCCAA` — result for “RBNS enrichment (R)”: 0.637.
Under “RBNS enrichment (R)”, `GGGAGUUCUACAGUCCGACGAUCUUUUUUUUUUUUAAACUUUGCCUUCCUGGACAACUUAAGGUGUGUCUCUUAAUUCUCUCUUACAGUAUUUGUUUACUUUGGAUUUUUGUUUUUAAUCUCAAAAGAGAGAGUGGAAUUCUCGGGUGCCAA` is recorded as 0.644.
Under “RBNS enrichment (R)”, `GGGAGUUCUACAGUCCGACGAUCCCUCAUUGAACACGAGAUGGAGCUAGGAAUGCACGUGGGGCUGUGAACUGGAUGCACUGGCCAUAGCUAGCAUCAAUGUCCCCGUGUUUCCAGGAACCCCUGCCAUGAGGUGGAAUUCUCGGGUGCCAA` is recorded as 0.899.
`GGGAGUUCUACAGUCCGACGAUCUCUCGUUUACUGAUAAUAGUAAAGUUGAUUCAUGACCCCUGUCCUUUUUUUUCUACUGAUCUACCCAAGUGUAGGUGAGCCGCAGCAGGGAGUGAUUCCUAGAAGACGGAUGGAAUUCUCGGGUGCCAA`: “RBNS enrichment (R)” 0.284.

Sample 3
Target: Prothrombin, mature alpha-thrombin (F2, Homo sapiens, UniProt P00734)
Method: aptamer microarray, sandwich
Molecule type: DNA with 2'F-ANA
Matrix: in vitro
Tested at: 200 nM
Notes: whole 15-mer aptamer, many near background
Added: Cy3 exosite-II aptamer, 400 nM
Direction: higher = stronger binding
Oligonucleotide: GGTTGGTGTGGTTGG
`2'F-ANA at 4 6 7 8 9 10 11 12 13`: “mean fluorescence intensity” 84.2 a.u.
`2'F-ANA at 2 3 4 5 8 9 12 15` — result for “mean fluorescence intensity”: 224 a.u.
For `2'F-ANA at 2 6 7 9 11 12 14 15`, “mean fluorescence intensity” read 128 a.u.
`2'F-ANA at 2 6 7 8 9 10 11 13` — result for “mean fluorescence intensity”: 150 a.u.
For `2'F-ANA at 1 3 6 9 11 12 14`, “mean fluorescence intensity” read 89.7 a.u.
Under “mean fluorescence intensity”, `2'F-ANA at 1 2 5 10 12 13 15` is recorded as 143 a.u.

Mixed results
With `PhoQ, residues 284 288 289 292 302 303 ASSHFY` the fold induction was 39.7 (PhoP, residues 12 14 15 18 19 STHWV (Escherichia coli, UniProt P23836); Sort-seq, measured: YFP reporter; E. coli; PhoQ-PhoP variant library, added: 10 µM Mg2+; reference: high Mg2+ state, higher = stronger signaling).
